Assay results gathered from unrelated publications.
Numbered parts are unrelated; each lists some results of a single study.
Sequence of UniProt Q5VT25 (whole entry, looked up): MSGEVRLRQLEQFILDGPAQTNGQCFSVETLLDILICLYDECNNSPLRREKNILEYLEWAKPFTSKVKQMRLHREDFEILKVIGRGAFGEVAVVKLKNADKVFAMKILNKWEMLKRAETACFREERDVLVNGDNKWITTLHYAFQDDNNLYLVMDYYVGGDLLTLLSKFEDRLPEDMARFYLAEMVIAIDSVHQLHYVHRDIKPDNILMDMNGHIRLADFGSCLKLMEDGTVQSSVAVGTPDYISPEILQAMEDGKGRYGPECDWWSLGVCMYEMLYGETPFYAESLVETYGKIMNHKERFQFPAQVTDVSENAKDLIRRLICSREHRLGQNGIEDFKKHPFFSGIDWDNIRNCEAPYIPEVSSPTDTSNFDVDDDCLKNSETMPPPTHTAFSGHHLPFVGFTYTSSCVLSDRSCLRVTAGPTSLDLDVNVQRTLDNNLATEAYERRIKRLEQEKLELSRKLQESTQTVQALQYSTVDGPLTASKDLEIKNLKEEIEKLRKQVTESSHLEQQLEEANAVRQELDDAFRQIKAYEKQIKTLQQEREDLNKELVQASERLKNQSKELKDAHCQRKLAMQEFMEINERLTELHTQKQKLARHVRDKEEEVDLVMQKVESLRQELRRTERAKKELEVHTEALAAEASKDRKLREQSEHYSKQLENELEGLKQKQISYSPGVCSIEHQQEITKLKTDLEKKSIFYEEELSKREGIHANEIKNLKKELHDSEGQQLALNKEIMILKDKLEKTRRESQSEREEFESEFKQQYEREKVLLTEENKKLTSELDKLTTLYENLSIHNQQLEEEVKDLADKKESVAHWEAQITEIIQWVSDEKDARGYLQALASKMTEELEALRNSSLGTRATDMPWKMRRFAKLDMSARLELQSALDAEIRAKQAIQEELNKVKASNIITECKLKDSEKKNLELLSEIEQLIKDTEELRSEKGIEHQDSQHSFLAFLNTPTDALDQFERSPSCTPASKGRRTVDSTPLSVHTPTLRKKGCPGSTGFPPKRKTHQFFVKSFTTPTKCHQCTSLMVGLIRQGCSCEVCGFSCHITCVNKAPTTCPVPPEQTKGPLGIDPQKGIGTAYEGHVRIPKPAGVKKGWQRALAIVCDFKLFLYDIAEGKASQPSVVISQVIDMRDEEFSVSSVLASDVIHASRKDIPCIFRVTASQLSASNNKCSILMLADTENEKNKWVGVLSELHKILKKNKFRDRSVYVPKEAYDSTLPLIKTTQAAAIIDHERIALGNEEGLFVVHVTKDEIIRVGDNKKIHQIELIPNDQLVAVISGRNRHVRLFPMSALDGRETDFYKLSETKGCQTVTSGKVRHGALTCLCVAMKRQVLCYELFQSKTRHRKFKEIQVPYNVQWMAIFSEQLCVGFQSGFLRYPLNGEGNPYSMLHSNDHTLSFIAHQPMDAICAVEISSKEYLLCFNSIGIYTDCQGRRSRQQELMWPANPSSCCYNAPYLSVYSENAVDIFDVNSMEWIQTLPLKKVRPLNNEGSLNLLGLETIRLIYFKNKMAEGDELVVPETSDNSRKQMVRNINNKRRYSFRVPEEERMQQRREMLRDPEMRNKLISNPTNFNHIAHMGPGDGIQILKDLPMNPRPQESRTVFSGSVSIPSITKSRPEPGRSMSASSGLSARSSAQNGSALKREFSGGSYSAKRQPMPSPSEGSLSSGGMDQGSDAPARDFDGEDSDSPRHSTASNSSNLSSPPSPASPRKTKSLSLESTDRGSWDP
Sequence of UniProt P29317 (whole entry, looked up): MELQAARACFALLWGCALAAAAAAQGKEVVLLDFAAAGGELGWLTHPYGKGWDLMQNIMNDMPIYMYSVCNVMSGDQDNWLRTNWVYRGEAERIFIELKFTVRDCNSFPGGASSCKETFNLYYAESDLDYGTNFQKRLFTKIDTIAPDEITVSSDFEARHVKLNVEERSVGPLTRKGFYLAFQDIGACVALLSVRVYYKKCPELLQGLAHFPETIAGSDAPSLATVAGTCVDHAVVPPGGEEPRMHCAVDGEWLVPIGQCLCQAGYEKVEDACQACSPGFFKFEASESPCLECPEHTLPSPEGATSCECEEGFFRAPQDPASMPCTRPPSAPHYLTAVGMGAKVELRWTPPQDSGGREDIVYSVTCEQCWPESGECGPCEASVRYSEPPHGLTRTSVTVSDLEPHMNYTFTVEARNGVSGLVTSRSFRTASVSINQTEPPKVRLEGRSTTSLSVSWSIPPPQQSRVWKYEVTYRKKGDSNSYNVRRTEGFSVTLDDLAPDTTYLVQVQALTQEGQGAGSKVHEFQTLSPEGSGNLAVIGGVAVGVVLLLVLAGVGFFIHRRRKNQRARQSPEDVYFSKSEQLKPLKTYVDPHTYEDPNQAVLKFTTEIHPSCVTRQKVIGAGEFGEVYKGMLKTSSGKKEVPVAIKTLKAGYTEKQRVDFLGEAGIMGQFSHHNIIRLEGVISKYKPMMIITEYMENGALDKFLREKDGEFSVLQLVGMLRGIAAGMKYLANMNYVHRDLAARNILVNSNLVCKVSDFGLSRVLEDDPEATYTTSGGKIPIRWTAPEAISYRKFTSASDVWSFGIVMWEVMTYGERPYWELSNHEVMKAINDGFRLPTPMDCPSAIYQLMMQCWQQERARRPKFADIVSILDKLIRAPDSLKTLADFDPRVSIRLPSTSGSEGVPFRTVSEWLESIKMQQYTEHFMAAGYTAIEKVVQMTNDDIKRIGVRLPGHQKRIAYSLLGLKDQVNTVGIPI
Sequence of UniProt Q6P2M8 (whole entry, looked up): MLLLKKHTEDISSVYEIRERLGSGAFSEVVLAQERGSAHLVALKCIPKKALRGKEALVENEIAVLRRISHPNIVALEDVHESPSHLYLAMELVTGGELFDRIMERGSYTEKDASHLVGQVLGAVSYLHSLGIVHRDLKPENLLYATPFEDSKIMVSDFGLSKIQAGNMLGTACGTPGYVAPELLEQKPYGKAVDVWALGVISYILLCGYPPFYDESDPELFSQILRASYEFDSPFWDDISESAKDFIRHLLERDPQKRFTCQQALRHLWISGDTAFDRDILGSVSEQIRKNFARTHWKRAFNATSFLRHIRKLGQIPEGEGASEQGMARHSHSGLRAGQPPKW
Sequence of UniProt P50750 (whole entry, looked up): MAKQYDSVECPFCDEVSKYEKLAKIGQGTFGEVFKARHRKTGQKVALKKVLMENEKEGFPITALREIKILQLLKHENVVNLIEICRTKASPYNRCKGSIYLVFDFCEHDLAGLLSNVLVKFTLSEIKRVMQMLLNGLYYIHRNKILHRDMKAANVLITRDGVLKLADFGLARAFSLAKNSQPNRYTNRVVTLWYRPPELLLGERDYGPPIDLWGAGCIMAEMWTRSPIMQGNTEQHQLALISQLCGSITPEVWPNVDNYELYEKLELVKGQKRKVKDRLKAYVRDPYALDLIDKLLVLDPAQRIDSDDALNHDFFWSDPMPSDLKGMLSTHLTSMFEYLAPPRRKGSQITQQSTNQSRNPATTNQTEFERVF
Sequence of UniProt P78368 (whole entry, looked up): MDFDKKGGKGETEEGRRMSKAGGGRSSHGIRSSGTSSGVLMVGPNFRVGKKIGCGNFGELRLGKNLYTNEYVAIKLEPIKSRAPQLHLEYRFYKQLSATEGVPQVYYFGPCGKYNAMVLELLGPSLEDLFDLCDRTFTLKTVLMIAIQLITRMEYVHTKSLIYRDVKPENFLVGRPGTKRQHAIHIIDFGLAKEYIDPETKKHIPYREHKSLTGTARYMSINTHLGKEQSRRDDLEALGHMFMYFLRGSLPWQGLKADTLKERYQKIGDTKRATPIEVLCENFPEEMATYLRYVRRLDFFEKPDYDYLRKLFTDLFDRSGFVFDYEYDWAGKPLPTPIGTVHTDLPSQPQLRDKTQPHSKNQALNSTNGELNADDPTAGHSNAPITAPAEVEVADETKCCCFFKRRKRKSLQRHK
Sequence of UniProt Q16659 (whole entry, looked up): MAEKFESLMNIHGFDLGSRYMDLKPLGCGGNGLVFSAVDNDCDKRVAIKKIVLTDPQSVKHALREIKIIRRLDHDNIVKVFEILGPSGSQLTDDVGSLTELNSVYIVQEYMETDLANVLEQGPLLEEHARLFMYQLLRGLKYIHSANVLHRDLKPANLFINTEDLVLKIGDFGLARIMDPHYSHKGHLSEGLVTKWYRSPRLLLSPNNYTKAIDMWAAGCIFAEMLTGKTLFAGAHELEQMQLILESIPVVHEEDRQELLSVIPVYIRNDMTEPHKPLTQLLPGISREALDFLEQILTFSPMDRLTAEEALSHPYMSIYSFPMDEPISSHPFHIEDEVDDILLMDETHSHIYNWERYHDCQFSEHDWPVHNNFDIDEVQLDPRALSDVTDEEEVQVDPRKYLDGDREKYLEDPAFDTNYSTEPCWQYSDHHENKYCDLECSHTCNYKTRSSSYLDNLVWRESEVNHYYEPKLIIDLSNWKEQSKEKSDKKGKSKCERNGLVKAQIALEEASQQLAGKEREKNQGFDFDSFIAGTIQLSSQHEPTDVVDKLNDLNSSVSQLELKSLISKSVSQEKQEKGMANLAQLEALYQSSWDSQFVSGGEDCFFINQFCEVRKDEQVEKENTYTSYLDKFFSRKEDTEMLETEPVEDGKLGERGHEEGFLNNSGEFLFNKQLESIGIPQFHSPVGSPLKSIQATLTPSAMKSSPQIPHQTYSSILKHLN

Block 1 — species: mouse; matrix: microsomes or S9; tested at: 2 µM; time: 0.5 h
For CC1=C(C#N)C(c2ccc(C(C)C)cc2)C2=C(O)c3ccccc3C2=N1 (stereo not shown), the remaining compound was 2.44%.
For COC(=O)c1sc2ncn(CC(C)=O)c(=O)c2c1C, the remaining compound was 0.222%.
For COC(=O)c1ccccc1NC(=O)c1c(OC)cc(=O)n2c1CCCC2, the remaining compound was 2.36%.
CCN(C(=O)COC(=O)c1cc2c(C)nn(-c3ccccc3)c2s1)c1cccc2ccccc12 gave a remaining compound of 0.96%.
For O=C(N1CCCO1)N(c1ccccc1)c1ccccc1, the remaining compound was 8.35%.
The remaining compound of O=C(NCc1ccccc1)c1cnc2ccc(S(=O)(=O)Nc3ccc4c(c3)OCCO4)cc2c1O is reported as 0.0532%.
COc1cc(=O)[nH]cc1C(=O)NC1CCCN(c2ccccc2)C1=O (stereo not shown) gave a remaining compound of 85.5%.
Cc1nnc2n1CCC(N(C)S(=O)(=O)c1cn(C)cn1)CC2 (stereo not shown) has a remaining compound of 89.6%.

Block 2 — read-out: enzyme activity; action: inhibitor; tested at: 0.5 µM; baseline: control
Target: Dual specificity mitogen-activated protein kinase kinase 6 (MAP2K6, Homo sapiens, UniProt P52564)
Construct (P52564 1-334): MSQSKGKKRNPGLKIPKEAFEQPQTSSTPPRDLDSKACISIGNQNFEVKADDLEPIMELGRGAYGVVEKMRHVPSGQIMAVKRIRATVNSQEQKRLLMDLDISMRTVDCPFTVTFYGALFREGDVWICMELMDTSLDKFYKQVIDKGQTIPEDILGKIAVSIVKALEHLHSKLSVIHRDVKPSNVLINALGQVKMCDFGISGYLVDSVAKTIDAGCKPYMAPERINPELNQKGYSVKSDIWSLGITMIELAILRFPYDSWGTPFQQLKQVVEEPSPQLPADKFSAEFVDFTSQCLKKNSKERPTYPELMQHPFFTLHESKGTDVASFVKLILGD
With Cn1nc2c3c(cccc31)C(=O)c1ccccc1-2 the remaining activity was 96.4%.
CCN(CC)C(=O)c1ccc(Nc2nc(OCC3CCCCC3)c3[nH]cnc3n2)cc1 gave a remaining activity of 93.1%.
The remaining activity of O=C1C(Cl)=C(N2C(=O)CCC2=O)C(=O)c2ccccc21 is reported as 107%.
Cc1cc2ncc(-c3ccccc3)nc2cc1C has a remaining activity of 91.1%.
c1ccc(-c2cnc(Nc3ccc(OCCN4CCCC4)cc3)s2)cc1 gave a remaining activity of 93.6%.
With c1ccc(-c2[nH]ncc2-c2ccnc3ccccc23)nc1 the remaining activity was 138%.
N#Cc1c(NC(=O)c2cccc3ccccc23)sc2c1CCCC2 has a remaining activity of 98.1%.
O=c1cc(-c2cccc3c2Sc2ccccc2S3)oc(N2CCOCC2)c1 has a remaining activity of 107%.
C[C@@H]1CCN(C(=O)CC#N)C[C@@H]1N(C)c1ncnc2[nH]ccc12 has a remaining activity of 99.4%.
Cc1nc2cc3nc(-c4cccs4)cnc3cc2n1C gave a remaining activity of 104%.
For Cc1cn(-c2cc(NC(=O)c3ccc(C)c(Nc4nccc(-c5cccnc5)n4)c3)cc(C(F)(F)F)c2)cn1, the remaining activity was 96.3%.
For O=C(Nc1cccc(Nc2nccc(Nc3cccc(C(F)(F)F)c3)n2)c1)C1CC1, the remaining activity was 98.3%.
Nc1cccc(-c2cc3c(Oc4cccc(O)c4)ncnc3[nH]2)c1 gave a remaining activity of 90.1%.
With O=C(NC(NC(=S)Nc1ccc(F)c([N+](=O)[O-])c1)C(Cl)(Cl)Cl)C(c1ccccc1)c1ccccc1 (stereo not shown) the remaining activity was 107%.
For CN(C)C[C@H]1CCn2c(c(C3=C(c4cn(C)c5ccccc45)C(=O)NC3=O)c3ccccc32)C1, the remaining activity was 109%.
For COc1cc2c(cc1OC)-c1[nH]nc(Nc3cccc(F)c3)c1C2, the remaining activity was 87%.
For COc1cc2ncnc(Nc3ccc(O)c(Br)c3)c2cc1OC, the remaining activity was 84.9%.
For O=C1c2ccccc2-c2n[nH]c3cccc1c23, the remaining activity was 87.1%.
CCOc1nc(NC(=O)Cc2cc(OC)ccc2OC)cc(N)c1C#N has a remaining activity of 96.8%.
The remaining activity of COc1cc2ncnc(Nc3cccc(Cl)c3)c2cc1OC is reported as 88.7%.
The remaining activity of CCN(CC)CCNC(=O)c1c(C)[nH]c(/C=C2\C(=O)Nc3ccc(Cl)cc32)c1C is reported as 86.2%.
For N#C/C(=C\c1ccc(O)c(O)c1)C(=O)NCc1ccccc1, the remaining activity was 127%.
Ic1cccc(CSc2nnc(-c3ccncc3)o2)c1 has a remaining activity of 97%.

Block 3 — technique: competition with immobilised ligand; tested at: 1 µM
Structure (SMILES): CN(C)C(=O)Cn1cc(-c2nc(C3(c4ccc(-c5cnc(N)nc5)cc4)CC3)no2)cn1
For PNCK (Homo sapiens, UniProt Q6P2M8); cell-free assay: remaining binding read 77%.
The remaining binding was 73% (CSNK2A1 (Homo sapiens, UniProt P68400); cell-free assay).
For RET (Homo sapiens, UniProt P07949, V804M); cell-free assay: remaining binding read 100%.
CSF1R (Homo sapiens, UniProt P07333); cell-free assay — remaining binding: 100%.
It gave 91% for remaining binding (PRKACA (Homo sapiens, UniProt P17612); cell-free assay).
For CDK5 (Homo sapiens, UniProt Q00535); cell-free assay: remaining binding read 100%.
CDC42BPA (Homo sapiens, UniProt Q5VT25); cell-free assay — remaining binding: 100%.
For MAPK3 (Homo sapiens, UniProt P27361); cell-free assay: remaining binding read 79%.
GSK3A (Homo sapiens, UniProt P49840); cell-free assay — remaining binding: 100%.
For ANKK1 (Homo sapiens, UniProt Q8NFD2); cell-free assay: remaining binding read 81%.
For BUB1 (Homo sapiens, UniProt O43683); cell-free assay: remaining binding read 75%.
BMPR1A (Homo sapiens, UniProt P36894); binding — remaining binding: 87%.
The remaining binding was 91% (MAPK6 (Homo sapiens, UniProt Q16659); cell-free assay).
The remaining binding was 89% (EPHA2 (Homo sapiens, UniProt P29317); cell-free assay).
The remaining binding was 67% (Ribosomal protein S6 kinase alpha-5, C-terminal kinase domain (RPS6KA5, Homo sapiens, UniProt O75582); cell-free assay).
CSNK1G2 (Homo sapiens, UniProt P78368); cell-free assay — remaining binding: 82%.
For CDK9 (Homo sapiens, UniProt P50750); cell-free assay: remaining binding read 100%.
CDK11B (Homo sapiens, UniProt P21127); cell-free assay — remaining binding: 96%.
The remaining binding was 100% (CHEK1 (Homo sapiens, UniProt O14757); cell-free assay).
BRAF (Homo sapiens, UniProt P15056, V600E); cell-free assay — remaining binding: 87%.
MAP4K3 (Homo sapiens, UniProt Q8IVH8); cell-free assay — remaining binding: 89%.
For PTK2B (Homo sapiens, UniProt Q14289); cell-free assay: remaining binding read 90%.
CDK7 (Homo sapiens, UniProt P50613); cell-free assay — remaining binding: 72%.
The remaining binding was 88% (MERTK (Homo sapiens, UniProt Q12866); cell-free assay).
It gave 100% for remaining binding (PTK2 (Homo sapiens, UniProt Q05397); cell-free assay).

Block 4 — read-out: enzyme activity; action: inhibitor; tested at: 10 µM
Target: Calcium/calmodulin-dependent protein kinase type II subunit alpha (CAMK2A, Homo sapiens, UniProt Q9UQM7)
Sequence of UniProt Q9UQM7 (whole entry, looked up): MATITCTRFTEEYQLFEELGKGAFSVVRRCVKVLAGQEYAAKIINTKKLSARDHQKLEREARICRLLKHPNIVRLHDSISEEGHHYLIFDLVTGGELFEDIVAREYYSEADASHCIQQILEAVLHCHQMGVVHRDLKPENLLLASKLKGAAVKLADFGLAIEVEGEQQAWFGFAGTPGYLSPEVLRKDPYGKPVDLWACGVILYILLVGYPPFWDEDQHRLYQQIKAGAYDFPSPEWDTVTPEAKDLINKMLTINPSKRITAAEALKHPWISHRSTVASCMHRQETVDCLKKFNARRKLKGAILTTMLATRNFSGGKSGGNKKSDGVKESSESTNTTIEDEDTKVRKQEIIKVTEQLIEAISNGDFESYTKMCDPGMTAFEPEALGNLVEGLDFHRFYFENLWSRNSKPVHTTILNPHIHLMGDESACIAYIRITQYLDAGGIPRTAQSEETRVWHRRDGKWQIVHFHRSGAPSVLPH
The inhibition of O=C(O)CNC(=O)/C=C/c1ccccc1 is reported as -14%.
The inhibition of COc1ccc(C[C@@H]2c3cc(Oc4cc(C[C@@H]5c6cc(O)c(OC)cc6CCN5C)ccc4O)c(OC)cc3CCN2C)cc1 is reported as -1%.
CCN(CC)C(=O)[C@@]1(c2ccccc2)C[C@H]1CN gave an inhibition of -14%.
C[C@@H](N)C(=O)O has an inhibition of 21%.
The inhibition of CCN(CC)c1ccc2cc(-c3nc4ccccc4s3)c(=O)oc2c1 is reported as -13%.
With CCCCCCNC(=O)n1cc(F)c(=O)[nH]c1=O the inhibition was 3%.
COC(=O)c1cccnc1 has an inhibition of 31%.
C/C1=C\C[C@]2(C(C)C)CC[C@@](C)(O2)[C@@H](O)CC/C(C)=C/CC1 gave an inhibition of -20%.

Excerpt of the above (block 3):
The remaining binding was 91% (MAPK6 (Homo sapiens, UniProt Q16659); cell-free assay).
The remaining binding was 89% (EPHA2 (Homo sapiens, UniProt P29317); cell-free assay).
The remaining binding was 67% (Ribosomal protein S6 kinase alpha-5, C-terminal kinase domain (RPS6KA5, Homo sapiens, UniProt O75582); cell-free assay).
CSNK1G2 (Homo sapiens, UniProt P78368); cell-free assay — remaining binding: 82%.
For CDK9 (Homo sapiens, UniProt P50750); cell-free assay: remaining binding read 100%.
CDK11B (Homo sapiens, UniProt P21127); cell-free assay — remaining binding: 96%.
The remaining binding was 100% (CHEK1 (Homo sapiens, UniProt O14757); cell-free assay).
BRAF (Homo sapiens, UniProt P15056, V600E); cell-free assay — remaining binding: 87%.
MAP4K3 (Homo sapiens, UniProt Q8IVH8); cell-free assay — remaining binding: 89%.
For PTK2B (Homo sapiens, UniProt Q14289); cell-free assay: remaining binding read 90%.
